Published values from different studies.
Each line is one published result; not all experiments were run side by side.
Organism: Acinetobacter baumannii

CN[C@@H]1[C@H](O)[C@H](NC)[C@H]2O[C@]3(O)[C@H](O[C@@H]2[C@H]1O)O[C@H](C)C[C@H]3NC(=O)Cc1cc(Cl)ccn1 — MIC (microbial growth, broth dilution; ATCC19606): > 200 µg/mL
CC[C@H](C)[C@H](NC(=O)[C@@H](CCCNC(=N)N)NC(=O)[C@H](CCCNC(=N)N)NC(=O)[C@@H]1CCCN1C(=O)[C@@H]1CCCN1C(=O)[C@H](CCCNC(=N)N)NC(=O)[C@@H]1CCCN1C(=O)[C@H](CCCNC(=N)N)NC(=O)[C@@H]1CCCN1C(=O)[C@H](CC(C)C)NC(=O)[C@H](Cc1ccccc1)NC(=O)[C@@H]1CCCN1C(=O)[C@@H]1CCCN1C(=O)[C@H](CCCCN)NC(=O)[C@H](CC(=O)O)NC(=O)[C@@H](N)C(C)C)C(=O)N[C@@H](Cc1ccc(O)cc1)C(=O)N[C@@H](CC(N)=O)C(=O)N[C@H](CCCNC(=N)N)C(N)=O — MIC (broth microdilution; DSM 30008; 18 h, 37 °C, 25% MHB2): 64 µg/mL
CC[C@H](C)[C@H](NC(=O)CN)C(=O)NCC(=O)N[C@@H](C)C(=O)N[C@H](C(=O)N[C@@H](CC(C)C)C(=O)N[C@@H](CCCCN)C(=O)N[C@H](C(=O)N[C@@H](CC(C)C)C(=O)N[C@H](C(=O)N[C@H](C(=O)NCC(=O)N[C@@H](CC(C)C)C(=O)N1CCC[C@H]1C(=O)N[C@@H](C)C(=O)N[C@@H](CC(C)C)C(=O)N[C@H](C(=O)N[C@@H](CO)C(=O)N[C@@H](Cc1c[nH]c2ccccc12)C(=O)N[C@H](C(=O)N[C@@H](CCCCN)C(=O)N[C@@H](CCCNC(=N)N)C(=O)N[C@@H](CCCCN)C(=O)N[C@@H](CCCNC(=N)N)C(=O)N[C@@H](CCC(N)=O)C(=O)N[C@@H](CCC(N)=O)C(N)=O)[C@@H](C)CC)[C@@H](C)CC)[C@@H](C)O)[C@@H](C)O)C(C)C)C(C)C — MIC (CLSI broth microdilution; ATCC 19606; 18 h, 37 °C): 2 µM
CCCCCCCC(=O)N[C@@H](CCN)C(=O)N[C@@H](C)C(=O)N[C@@H](CCN)C(=O)N[C@H]1CCNC(=O)[C@H]([C@@H](C)O)NC(=O)[C@H](CCN)NC(=O)[C@H](CCN)NC(=O)[C@H](CC(C)C)NC(=O)[C@@H](Cc2ccccc2)NC(=O)[C@H](CCN)NC1=O — MIC (broth microdilution; ATCC 19606; 20 h, 37 °C): > 512 µg/mL
O=[N+]([O-])c1c(Br)c(Cl)c2cccnc2c1O — MIC (broth microdilution; carbapenem-resistant clinical isolate): 2 µg/mL
CCCCCCCC(=O)N[C@@H](CCN)C(=O)N[C@H](C(=O)N[C@@H](CCN)C(=O)N[C@H]1CCNC(=O)[C@H]([C@@H](C)O)NC(=O)[C@H](CCN)NC(=O)[C@H](CCN)NC(=O)[C@H](CC(C)C)NC(=O)[C@@H](Cc2ccc(Br)cc2)NC(=O)[C@H](CCN)NC1=O)[C@@H](C)O — MIC (broth microdilution; ATCC 19606, colistin-susceptible): < 0.125 µg/mL
CCCCCCCC(=O)N[C@@H](CCN)C(=O)N[C@H](C(=O)N[C@@H](CCN)C(=O)N[C@H]1CCNC(=O)[C@H]([C@@H](C)O)NC(=O)[C@H](CCN)NC(=O)[C@H](CCN)NC(=O)[C@H](C)NC(=O)[C@@H](Cc2ccccc2)NC(=O)[C@H](CCN)NC1=O)[C@@H](C)O — MIC (broth microdilution; ATCC 19606; 20 h, 37 °C): 1 µg/mL
CC[C@H](C)[C@H](NC(=O)[C@@H](CCCNC(=N)N)NC(=O)[C@H](CCCNC(=N)N)NC(=O)[C@H](CC(C)C)NC(=O)[C@H](Cc1c[nH]c2ccccc12)NC(=O)[C@H](CCCNC(=N)N)NC(=O)[C@@H]1CCCN1C(=O)[C@H](CCCNC(=N)N)NC(=O)[C@@H]1CCCN1C(=O)[C@H](CC(C)C)NC(=O)[C@H](Cc1ccc(O)cc1)NC(=O)[C@@H]1CCCN1C(=O)[C@@H]1CCCN1C(=O)[C@H](CCCCN)NC(=O)[C@H](CC(=O)O)NC(=O)[C@@H](N)C(C)C)C(=O)N[C@@H](Cc1ccc(O)cc1)C(=O)N[C@@H](CC(N)=O)C(=O)N[C@H](CCCNC(=N)N)C(N)=O — MIC (broth microdilution; DSM 30008; 18 h, 37 °C, 25% MHB2): 16 µg/mL
CCCCCCCC(=O)N[C@@H](CCN)C(=O)N[C@H](C(=O)N[C@@H](CCN)C(=O)N[C@H]1CCNC(=O)[C@H]([C@@H](C)O)NC(=O)[C@H](CCN)NC(=O)[C@H](CCN)NC(=O)[C@H](Cc2cccc(F)c2)NC(=O)[C@@H](CC(C)C)NC(=O)[C@H](CCN)NC1=O)[C@@H](C)O — MIC (broth microdilution; colistin-resistant isolates): 4 to 8 µg/mL
CC(C)C[C@@H](NC(=O)[C@@H](CCCNC(=N)N)NC(=O)[C@H](N)CCCNC(=N)N)C(=O)N[C@H](CC(C)C)C(=O)N[C@H](CCCNC(=N)N)C(=O)N[C@H](CCCCN)C(=O)N[C@H](CC(C)C)C(=O)N[C@H](CCCCN)C(=O)NCC(=O)N[C@H](CCCCN)C(=O)N[C@H](CCCCN)C(=O)N[C@H](CC(C)C)C(=O)N[C@H](Cc1ccc(O)cc1)C(=O)N[C@H](CC(C)C)C(=O)N[C@H](Cc1ccc(O)cc1)C(=O)N[C@H](Cc1ccccc1)C(=O)N[C@H](CCCCN)C(=O)N[C@H](CC(C)C)C(=O)N[C@H](CCC(N)=O)C(=O)N[C@H](CC(C)C)C(=O)N[C@H](CC(C)C)C(=O)N[C@H](CCCCN)C(=O)N[C@H](CCCCN)C(N)=O — MIC (KCCM 40203, Mueller-Hinton broth; 24 h): 4 µM
CC[C@H](C)[C@H](N)C(=O)N[C@@H](CCCNC(=N)N)C(=O)N[C@H](C(=O)N[C@@H](Cc1c[nH]c2ccccc12)C(=O)N[C@@H](Cc1ccccc1)C(=O)N[C@H](C(=O)N[C@@H](CCCCN)C(=O)N[C@H](C(=O)N[C@@H](CCCNC(=N)N)C(=O)N[C@@H](CCCCN)C(=O)N[C@@H](CCSC)C(=O)N[C@@H](CCCCN)C(=O)N[C@@H](C)C(=O)N[C@H](C(=O)N[C@@H](Cc1ccc(O)cc1)C(=O)N[C@@H](Cc1c[nH]cn1)C(=O)N[C@H](C(N)=O)[C@@H](C)O)[C@@H](C)CC)C(C)C)[C@@H](C)CC)C(C)C — MIC (broth dilution; ATCC 19606): < 3.1 µM
CCCCCCCC(=O)N[C@@H](CCN)C(=O)N[C@H](C(=O)N[C@@H](CCN)C(=O)N[C@H]1CCNC(=O)[C@H]([C@@H](C)O)NC(=O)[C@H](CCN)NC(=O)[C@H](CCN)NC(=O)[C@H](CC(C)C)NC(=O)[C@@H](CCc2ccccc2)NC(=O)[C@H](CCN)NC1=O)[C@@H](C)O — MIC (broth microdilution; colistin-resistant isolates): 4 to 8 µg/mL
CCCCCCCC(=O)N[C@@H](CCN)C(=O)N[C@H](C(=O)N[C@@H](CCN)C(=O)N[C@H]1CCNC(=O)[C@H]([C@@H](C)O)NC(=O)[C@H](CCN)NC(=O)[C@H](CCN)NC(=O)[C@H](CC(C)C)NC(=O)[C@@H](C)NC(=O)[C@H](CCN)NC1=O)[C@@H](C)O — MIC (CLSI broth microdilution; 5075, CAMHB; 20 h, 37 °C): 256 µg/mL
CCn1c(-c2ccc(F)cc2)c(-c2ccc(F)cc2)n(CC)c1=[Se] — MIC (broth microdilution; carbapenem-resistant; 24 h): > 40 µM
CCCCCCCCCCCCCCCCCCn1cc(CN(CCC(=O)NCCN(CCC(=O)NCCN(CCC(=O)NCCN(C)C)CCC(=O)NCCN(C)C)CCC(=O)NCCN(CCC(=O)NCCN(C)C)CCC(=O)NCCN(C)C)CCC(=O)NCCN(CCC(=O)NCCN(CCC(=O)NCCN(C)C)CCC(=O)NCCN(C)C)CCC(=O)NCCN(CCC(=O)NCCN(C)C)CCC(=O)NCCN(C)C)nn1 — MIC (microbial growth, broth dilution; MDR, ATCCBAA1791; 18 h): 6 µg/mL
CC[C@H](C)[C@H](NC(=O)[C@@H](CCCNC(=N)N)NC(=O)[C@H](CCCNC(=N)N)NC(=O)[C@@H]1CCCN1C(=O)[C@@H]1CCCN1C(=O)[C@H](Cc1c[nH]c2ccccc12)NC(=O)[C@@H]1CCCN1C(=O)[C@H](CCCNC(=N)N)NC(=O)[C@@H]1CCCN1C(=O)[C@H](CC(C)C)NC(=O)[C@H](Cc1ccc(O)cc1)NC(=O)[C@@H]1CCCN1C(=O)[C@@H]1CCCN1C(=O)[C@H](CCCCN)NC(=O)[C@H](CC(=O)O)NC(=O)[C@@H](N)C(C)C)C(=O)N[C@@H](Cc1ccc(O)cc1)C(=O)N[C@@H](CC(N)=O)C(=O)N[C@H](CCCNC(=N)N)C(N)=O — MIC (broth microdilution; DSM 30008; 18 h, 37 °C, 25% MHB2): 16 µg/mL
CC[C@H](C)[C@H](NC(=O)[C@H](C)NC(=O)[C@@H](NC(=O)[C@H](CC(=O)O)NC(=O)[C@H](CCCCN)NC(=O)[C@H](CO)NC(=O)[C@@H](NC(=O)[C@H](CC(N)=O)NC(=O)[C@H](C)NC(=O)[C@@H](NC(=O)[C@H](CCC(=O)O)NC(=O)[C@H](CCCCN)NC(=O)[C@@H](NC(=O)[C@@H](NC(=O)[C@H](Cc1c[nH]cn1)NC(=O)[C@H](CCCCN)NC(=O)[C@@H](NC(=O)[C@H](CCCCN)NC(=O)[C@H](CCCCN)NC(=O)[C@@H](NC(=O)[C@H](CC(C)C)NC(=O)[C@H](CCCCN)NC(=O)[C@H](CC(N)=O)NC(=O)[C@H](Cc1ccccc1)NC(=O)[C@H](CCCNC(=N)N)NC(=O)[C@H](CCCCN)NC(=O)[C@H](CCCNC(=N)N)NC(=O)[C@H](Cc1ccccc1)NC(=O)CN)C(C)C)C(C)C)[C@@H](C)O)[C@@H](C)CC)[C@@H](C)O)C(C)C)C(C)C)C(=O)N[C@H](C(=O)N[C@@H](C)C(=O)NCC(=O)N[C@@H](CO)C(=O)NCC(=O)N[C@H](C(=O)N[C@@H](C)C(=O)N[C@H](C(=O)NCC(=O)N[C@@H](C)C(=O)N[C@@H](C)C(=O)N[C@@H](CCSC)C(N)=O)C(C)C)C(C)C)C(C)C — MIC (broth microdilution; RKI 19/09, CAMHB with 10% mouse serum; 150 mM NaCl): 0.5 µg/mL
CC[C@H](C)[C@H](NC(=O)[C@@H](CCCNC(=N)N)NC(=O)[C@H](CCCNC(=N)N)NC(=O)[C@@H]1CCCN1C(=O)[C@@H]1CCCN1C(=O)[C@H](CCCNC(=N)N)NC(=O)[C@@H]1CCCN1C(=O)[C@H](CCCNC(=N)N)NC(=O)[C@@H]1CCCN1C(=O)[C@H](CC(C)C)NC(=O)[C@H](Cc1c[nH]c2ccccc12)NC(=O)[C@@H]1CCCN1C(=O)[C@@H]1CCCN1C(=O)[C@H](CCCCN)NC(=O)[C@H](CC(=O)O)NC(=O)[C@@H](N)C(C)C)C(=O)N[C@@H](Cc1ccc(O)cc1)C(=O)N[C@@H](CC(N)=O)C(=O)N[C@H](CCCNC(=N)N)C(N)=O — MIC (broth microdilution; DSM 30008; 18 h, 37 °C, 25% MHB2): 16 µg/mL
CN[C@H](CC(C)C)C(=O)N[C@H]1C(=O)N[C@@H](CC(N)=O)C(=O)N[C@H]2C(=O)N[C@H]3C(=O)N[C@H](C(=O)N[C@H](C(=O)O)c4cc(O)cc(O)c4-c4cc3ccc4O)[C@H](O)c3ccc(c(Cl)c3)Oc3cc2cc(c3O[C@@H]2O[C@H](CO)[C@@H](O)[C@H](O)[C@H]2O[C@H]2C[C@](C)(NCc3ccc(OCc4cn(CC(=O)N[C@H](C(=O)N[C@@H](CCN)C(=O)N[C@H]5CCNC(=O)[C@H]([C@@H](C)O)NC(=O)[C@H](CCN)NC(=O)[C@H](CCN)NC(=O)[C@H](CC(C)C)NC(=O)[C@@H](CC(C)C)NC(=O)[C@H](CCN)NC5=O)[C@@H](C)O)nn4)c(OC)c3)[C@H](O)[C@H](C)O2)Oc2ccc(cc2Cl)[C@H]1O — MIC (broth microdilution; BAA-747): 12 µM

Some of these lines once more:
CCCCCCCC(=O)N[C@@H](CCN)C(=O)N[C@H](C(=O)N[C@@H](CCN)C(=O)N[C@H]1CCNC(=O)[C@H]([C@@H](C)O)NC(=O)[C@H](CCN)NC(=O)[C@H](CCN)NC(=O)[C@H](CC(C)C)NC(=O)[C@@H](CCc2ccccc2)NC(=O)[C@H](CCN)NC1=O)[C@@H](C)O — MIC (broth microdilution; colistin-resistant isolates): 4 to 8 µg/mL
CCn1c(-c2ccc(F)cc2)c(-c2ccc(F)cc2)n(CC)c1=[Se] — MIC (broth microdilution; carbapenem-resistant; 24 h): > 40 µM
